Results from different studies.
Compare with care: the assays were run in different laboratories.
Cell line: SH-SY5Y

Compound	assay	setting	IC50
CC(=O)O[C@H]1OC[C@@H]2C=C([C@@]3(C)CCCC(C)(C)C3)CC[C@H]12	cytotoxicity, MTT	24 h	7.1 µM
Cc1c(COc2cc(OCc3cccc(C#N)c3)c(CNCCO)cc2Cl)cccc1-c1cccc(OCCCCCCC(=O)NO)c1	cell growth or viability, CCK-8	48 h	> 20 µM
CCCCCCCCCC(=O)Oc1c(C)c(OC)c2c(c1C)OC(=O)C(CCCCCCCC)C2(O)C=Cc1ccccc1 (stereo not shown)	cell growth or viability, SRB	72 h	> 50 µM
Cc1c(COc2cc(OCc3cccc(C#N)c3)c(CNC(CO)(CO)CO)cc2Cl)cccc1-c1cccc(OCCCCCC(=O)NO)c1	cell growth or viability, CCK-8	48 h	5.35 µM
CCCCCC(=O)Oc1c(C)c(OC)c2c(/C=C/c3ccccc3)c(CCCC)c(=O)oc2c1C	cell growth or viability, SRB	72 h	> 50 µM
CC(C)c1ccc(N(C)c2ccc3c(c2)OCC[C@H]3CNc2cnccc2C(=O)O)cc1	cell growth or viability, ATP luminescence	7 days	0.0135 µM
COc1c(C)c(OC(=O)c2ccc3ccccc3c2)c(C)c(O)c1C(=O)/C=C/c1ccccc1	cell growth or viability, SRB	72 h	> 50 µM
Cc1c(COc2cc(OCc3cccc(C#N)c3)c(CN3CCCC[C@@H]3C(=O)O)cc2Cl)cccc1-c1cccc(OCCCCCC(=O)NO)c1	cell growth or viability, CCK-8	48 h	> 20 µM
CCOC(=O)c1cc(C)n(CO)n1	cell growth or viability, MTT	24 h	474 µM
Cc1c(COc2cc(OCc3cccc(C#N)c3)c(CNC(C)(CO)CO)cc2Cl)cccc1-c1cccc(OCCCCCCC(=O)NO)c1	cell growth or viability, CCK-8	48 h	> 20 µM
OCn1cnc2ccccc21	cell growth or viability, MTT	24 h	17.7 µM
COc1c(C)c(OS(=O)(=O)c2ccccc2)c(C)c(OS(=O)(=O)c2ccccc2)c1C(=O)/C=C/c1ccccc1	cell growth or viability, SRB	72 h	> 50 µM
Cc1c(COc2cc(OCc3cccc(C#N)c3)c(CN3CCCC[C@@H]3C(=O)O)cc2Cl)cccc1-c1cccc(OCCCCCCC(=O)NO)c1	cell growth or viability, CCK-8	48 h	> 20 µM
CCOC(=O)c1cc(C)[nH]n1	cell growth or viability, MTT	24 h	25.9 µM
CCCCCC(=O)Oc1c(C)c(OC)c2c(c1C)OC(=O)[C@@H](CCCC)[C@]2(O)/C=C/c1ccccc1 (relative stereo)	cell growth or viability, SRB	72 h	> 50 µM
CCOc1cncc(-c2ccc(NC(=O)C3(c4ccnc(NS(=O)(=O)C5CC5)n4)CCOCC3)nc2)n1	cell growth or viability, ATP luminescence	72 h	0.036 µM

Some of these lines once more:
Compound	assay	setting	IC50
Cc1c(COc2cc(OCc3cccc(C#N)c3)c(CNCCO)cc2Cl)cccc1-c1cccc(OCCCCCCC(=O)NO)c1	cell growth or viability, CCK-8	48 h	> 20 µM
CC(=O)O[C@H]1OC[C@@H]2C=C([C@@]3(C)CCCC(C)(C)C3)CC[C@H]12	cytotoxicity, MTT	24 h	7.1 µM
